# Published values of several laboratories.
# A part holds a random share of what one study measured. Substitutions count along the parent as printed.

# Block 1 — method: RNA Bind-n-Seq; molecule type: RNA; matrix: in vitro; tested at: 200 nM; notes: whole 134-nt RNA, ends assumed; together with: 150 mM LiCl; relative to: input library; reading: higher = stronger binding; library: 7-deaza-guanosine replaces G
# Target: Fragile X messenger ribonucleoprotein 1, C-terminal low-complexity region (Fmr1, Mus musculus, UniProt P35922)
# All sequences stand within: GGGAGUUCUACAGUCCGACGAUC … UGGAAUUCUCGGGUGUCAAGG
Oligonucleotide,log2 enrichment
GUCCUGUGCUACACAUCGUAUGUACCGAAUCGGGGUUUUUGGGGAAAGGGGAAAGGGGAAAGUAUUAUGUUACGCCGUUCGGAUCUGCAC,0.506
GCAGGAAGUAAAAACAAAUGGAAAUGCUUCGGAUAGUGGCAGGGGUGGGGGUUGCUAAGGAAAGGGUGGGAUGGGAGUGGGUAAAGACUU,1.31
UAACUUCAGAGGAGGAUCUGAUGGAUAUGGCAGUGGACGUGGAUUUGGGGAUGGCUAUAAUGGGUAUGGAGGAGGACCUGGAGGUGGCAA,0.414
CACAGACAACACGCACCCACACAGACACAGUGGGAAGGGGUUGGGAUGGGGACAGGGUGCACAGCAGGGCGGGGUAGGACCCCAGCCCCU,-1.07
UCCUGUGCUACACAUCGUAUGUACCGAAUCGGGGAAAAAAGGAAAAAAGGGAAAAAAGGGAAAGUAUUAUGUUACGCCGUUCGGAUCUGC,0.12
CCUCAAGUCCUGUGCUACACAUCGUAUGUACCGAAUCGGAGGGGAGGGGAGGAAAGUAUUAUGUUACGCCGUUCGGAUCUGCACUUCCAG,-0.761
UCCUCAAGUCCUGUGCUACACAUCGUAUGUACCGAAUCGGGGUGGUGGUGGGAAAGUAUUAUGUUACGCCGUUCGGAUCUGCACUUCCAG,-0.0734
ACCAUGCAGGUGGGCAUCUUUGGGAAGAAAGGCAAGGGGGGGAUAGGGAGGGGGGUAACACUUUGGGAACAGGUGGUCCCAGGUCGUUUC,1.32

# Block 2 — method: EMSA with sequencing; molecule type: double-stranded DNA, one strand shown; matrix: in vitro; tested at: 10 and 20 nM; relative to: negative control set to 0; reading: higher = stronger binding
# Target: Hepatocyte nuclear factor 3-alpha (Foxa1, Mus musculus, UniProt P35582, residues 1-468, full length assumed)
# UniProt P35582, sequence (whole entry, looked up): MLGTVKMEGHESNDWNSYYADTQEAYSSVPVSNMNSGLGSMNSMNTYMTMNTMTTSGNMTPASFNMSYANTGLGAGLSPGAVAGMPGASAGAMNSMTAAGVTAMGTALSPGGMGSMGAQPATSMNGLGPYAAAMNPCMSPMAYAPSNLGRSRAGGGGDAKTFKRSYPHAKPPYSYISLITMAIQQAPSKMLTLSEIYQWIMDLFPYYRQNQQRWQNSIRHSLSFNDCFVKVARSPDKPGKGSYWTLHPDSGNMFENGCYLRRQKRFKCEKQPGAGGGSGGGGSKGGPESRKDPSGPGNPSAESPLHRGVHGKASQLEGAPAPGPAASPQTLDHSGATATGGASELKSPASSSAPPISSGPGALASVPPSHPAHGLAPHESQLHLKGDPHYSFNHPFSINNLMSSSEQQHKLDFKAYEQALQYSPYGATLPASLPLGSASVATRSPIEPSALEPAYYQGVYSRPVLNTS
# Notes: whole designed probe, mean of two concentrations, ends assumed
# All sequences stand within: GTGAGCGGTGCCCATTGATGGGGAAC … TTTCACTGGGATCGTGGGGAC
Oligonucleotide,normalised bound fraction [ratio]
GGGAATTTTTATATAATACCAACTAATGAGTGTAAAACAAAGAAACAAAAAGAAACCAGTCCACAGAAACCAGAGTTGAGGCATCTCACTCAGTGTTGACTCTCAAGGTGATTACCCTGTGAAACTATGTACTGTTCTTGCATAACAATTTTTGGAATCTTTTGCTTTGAAATGCCTTCAGAATCAGTTCATG,0.06
GTGTGTGCGCGCGCGTGTGTGTGTGTTTTCTTAAGCCGGGCTATTCAAACCCTGCTGCAATTCTCCGGTAAACAATGTTACATGGGGCATAATGCAAATAAACGCAATGATTCATGCGCGGTTCGCGCACTTTGCAGCCGGCCCGGTGGAGCAGCCAGTGCCGGATTTCTCCCTTTTTTTGCAGATCTGCAGA,0.426
TACATAACTGAACAGTGATTAAATATTGACTAAGAGCCAGGAGTTGACAGCCATTGGCCTCACCCTGGTAAATGCTGATATATGATGCTGAATGTAATTTCAGAGCCATCCTCTCAGGGCCATAGTTTTGTTGGTTTTTTTTTTTTTTTTCTGTTGGGAGATGGGGAGCCAGCAAGTTGTAGCTTATGCTTGA,0.14
ATCTTCCCCCTCTTCCTTGCCCCACCAGCTCACCTTCCCGGGTTATTTGCAGATAGGAAAATAAATAAAGCCGGCATTCGTTAACCCTCTTCTGGCGCAAACTGCTGTTTGCTCTGGTCCTTTGGCGACGCCAGGCGATGAATCATGTCCGGGAGAGCAAAGCACCGTGTCAGGGCCATGATCCGGGGTGGCC,0.372
TTTCTGCTGGAAAATTCTATCTGTCAATAGAGTTCTTAAAAGGATTTGTATTAAGCCTTCCACAGATACTCTGATATTAAAATCAGGTCTGAGTAATCTGGTACATTCTGTGTAGTTAAAATTAAATACTGCTATAAATATGCCCAGTGGGGTAATCCAATTTACTAGTCACTTCAGAGCTGATATGAAGGTC,0.0632

# Block 3 — method: aptamer microarray, sandwich; molecule type: DNA with 2'F-ANA; matrix: in vitro; tested at: 200 nM; together with: Cy3 exosite-II aptamer, 400 nM; reading: higher = stronger binding; oligonucleotide: GGTTGGTGTGGTTGG
# Target: Prothrombin, mature alpha-thrombin (F2, Homo sapiens, UniProt P00734)
# Notes: whole 15-mer aptamer, many near background
Modification,mean fluorescence intensity
2'F-ANA at 1 11 14 15,62.9 a.u.
2'F-ANA at 1 2 3 5 6 9 13 14 15,47.7 a.u.
2'F-ANA at 1 2 3 5 7 9 11,58.5 a.u.
2'F-ANA at 1 4 5 6 8 9,64.2 a.u.
2'F-ANA at 1 2 3 4 6 7 8 9 11 12 14,63.4 a.u.
2'F-ANA at 1 2 3 4 7 14,72.1 a.u.
2'F-ANA at 1 2 5 6 7 8 9 10,92.8 a.u.
2'F-ANA at 10 11 12 13 15,275 a.u.
2'F-ANA at 1 3 4 5 7 8 9 12 14 15,51 a.u.
2'F-ANA at 2 4 6 8 9 10 12 13,126 a.u.
2'F-ANA at 6 8 10 12 14 15,95.8 a.u.
2'F-ANA at 1 2 6 7 8 9 11 14 15,63.8 a.u.
2'F-ANA at 3 6 7 8 9 11,924 a.u.
2'F-ANA at 2 5 7 8 10 12 13 14,46 a.u.
2'F-ANA at 2 5 12 15,175 a.u.
2'F-ANA at 2 3 4 8 9 11 12 15,752 a.u.
2'F-ANA at 3 6 7 9 14 15,500 a.u.
2'F-ANA at 8 9 10 12 14 15,104 a.u.
2'F-ANA at 1 2 3 5 6 10 13 14 15,44.4 a.u.
2'F-ANA at 1 4 6 10 11 12 15,54.8 a.u.
2'F-ANA at 1 3 4 7 9 10 11 13 14,50.8 a.u.

# Block 4 — target: CCNB2, cyclin fold, Cln2 fusion (human); method: yeast growth competition, sequencing; matrix: yeast; notes: weak parent motif; relative to: not given; reading: higher = stronger binding
# Starting sequence: RBL1 docking peptide (human); GSAKRRLFGEDPP; partner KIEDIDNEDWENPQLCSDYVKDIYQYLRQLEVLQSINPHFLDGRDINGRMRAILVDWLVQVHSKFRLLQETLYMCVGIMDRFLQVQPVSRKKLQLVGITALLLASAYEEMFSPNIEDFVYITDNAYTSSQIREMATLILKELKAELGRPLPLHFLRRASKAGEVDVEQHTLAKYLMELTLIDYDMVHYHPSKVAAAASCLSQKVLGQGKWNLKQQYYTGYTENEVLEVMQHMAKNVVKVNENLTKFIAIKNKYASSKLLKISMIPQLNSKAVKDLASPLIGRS
Variant,normalised enrichment score
GSAKRSLFGEDPP [R6S],0.18
QSAKRRLFGEDPP [G1Q],0.117
GSAKVRLFGEDPP [R5V],-0.0531
GSTKRRLFGEDPP [A3T],0.893
GSAKRQLFGEDPP [R6Q],-0.409
GSAKRRLFWEDPP [G9W],0.498
GLAKRRLFGEDPP [S2L],-0.076
GSAKRRLFGEDPE [P13E],-0.581
GSAKRRLFGEDRP [P12R],0.184
GTAKRRLFGEDPP [S2T],0.198
GSCKRRLFGEDPP [A3C],0.573
GSAKRRLFKEDPP [G9K],0.455
GSAKRRLFGEEPP [D11E],0.0656
ESAKRRLFGEDPP [G1E],-0.173
GSKKRRLFGEDPP [A3K],0.311
GSAKRRLFGWDPP [E10W],0.0233
GSEKRRLFGEDPP [A3E],0.149
GDAKRRLFGEDPP [S2D],-0.232
GSAKRRLFGEAPP [D11A],0.417
GSAKRRRFGEDPP [L7R],0.245
GSAKRDLFGEDPP [R6D],-0.636
GYAKRRLFGEDPP [S2Y],0.204
CSAKRRLFGEDPP [G1C],0.239
GNAKRRLFGEDPP [S2N],0.16
GSAMRRLFGEDPP [K4M],-0.281

# Repeated from above (block 4):
Variant,normalised enrichment score
GLAKRRLFGEDPP [S2L],-0.076
GSAKRRRFGEDPP [L7R],0.245
GSKKRRLFGEDPP [A3K],0.311
